Results from different studies.
Parts stem from different laboratories: compare values within a part only.
Sequence of UniProt Q84WU6 (whole entry, looked up): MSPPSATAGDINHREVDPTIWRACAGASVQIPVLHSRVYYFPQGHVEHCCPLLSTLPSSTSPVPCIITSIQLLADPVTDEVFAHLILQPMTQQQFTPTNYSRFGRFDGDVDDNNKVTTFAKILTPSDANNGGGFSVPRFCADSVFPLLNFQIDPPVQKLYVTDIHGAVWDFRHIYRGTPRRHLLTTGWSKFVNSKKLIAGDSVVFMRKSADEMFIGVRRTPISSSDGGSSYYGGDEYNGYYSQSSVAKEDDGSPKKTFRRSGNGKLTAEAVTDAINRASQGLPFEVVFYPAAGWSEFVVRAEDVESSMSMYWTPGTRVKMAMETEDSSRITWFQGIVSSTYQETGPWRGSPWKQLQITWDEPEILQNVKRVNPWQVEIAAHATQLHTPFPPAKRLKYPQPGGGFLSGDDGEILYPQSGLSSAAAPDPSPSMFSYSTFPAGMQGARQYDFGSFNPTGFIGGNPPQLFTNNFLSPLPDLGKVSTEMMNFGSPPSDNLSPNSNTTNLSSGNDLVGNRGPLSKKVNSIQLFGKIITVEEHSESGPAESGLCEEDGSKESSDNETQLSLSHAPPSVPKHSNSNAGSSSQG

Series 1 — technique: RNA Bind-n-Seq; form: RNA; medium: in vitro; tested at: 365 nM; reference: no-protein control; direction: higher = stronger binding
Target: RNA binding protein fox-1 homolog 2, RRM domain, GST-SBP tag (RBFOX2, Homo sapiens, UniProt O43251-10, residues 100-194)
Setting: natural RNA segment, single round, ends assumed
Residues (chain): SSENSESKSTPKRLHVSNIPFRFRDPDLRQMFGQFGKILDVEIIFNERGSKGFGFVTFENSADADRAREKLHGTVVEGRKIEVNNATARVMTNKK
Oligonucleotide | RBNS enrichment (R)
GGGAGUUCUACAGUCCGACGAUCCUGUGCUCCUGUGAACUGCAGUGCUCCUUGUGCCUGCUGUGAACUGCAGUGCUCCCCAGUGCAGUCCUGUAAUCUGCAGCAGGGAGCACGUCCUCUGCUCUCUGCUAUGUUGGAAUUCUCGGGUGCCAA | 0.891
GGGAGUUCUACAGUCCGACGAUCUACCCAACUAUGUUGUGAUAGAAGAAAGAGAAACCUUCACUUUGGCAUUUUUUUUUAAUCACUGUUUAUUUUUCUGUUUGCGGCCCAGGAAGCAGUGGGAGGUGGUGGCAUGGAAUUCUCGGGUGCCAA | 0.955
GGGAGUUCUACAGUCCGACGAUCACAAUCUGGACUACCCCAAGAUGGCACCCAAGUGUUUGGCUUCUGGCUACCUAAGGUUAACAUGUCACUAGAGUAUUUUUAUGAGAGACAAACAUUAUAAAAAUCUGAUGUGGAAUUCUCGGGUGCCAA | 0.442
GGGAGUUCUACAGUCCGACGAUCUCUUUAAUCUCUUGUUAAAUUACCCCUUUGAUAUUGGUGUCUGUCAGCGUUGGGGCUUCUUAGUAUCAGGACCUCUCUGAGGUAAGGACUUUCCUGUGUGGCCACAGAAAUGGAAUUCUCGGGUGCCAA | 0.455
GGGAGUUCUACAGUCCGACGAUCCGUACGGAGGUGUGCAAUCCUGUGUCAGUCGCCUUGUGACACUGAAGUGGAUGAGUUAUAGAGGAGGCCCUCGAGGCUGACCCAAUACGGUUACUAAGGGAGACUACAGGUGGAAUUCUCGGGUGCCAA | 0.379
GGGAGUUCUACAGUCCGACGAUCCUGUUGCUAGCCACGUGGGAAGCUCAUCUUUCCCAGCAUCUACCCUGCUCUGAAAAUAGGUGCCCAGCACCCCACCGCUGCCUGCACAUGCUUCUUAGCGCUGACUUCCAUGGAAUUCUCGGGUGCCAA | 0.403
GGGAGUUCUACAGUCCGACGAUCAAGGGCACAGUUGUGGUACUGUCAUUGAUAAUAAUAUAGUUUUUUUUUUUUUCCUAAUUUUGACCUGUUUCACCAGUGUUUUACCCUUGACUGCCCCUUCUAUGCUGCUUUGGAAUUCUCGGGUGCCAA | 0.838
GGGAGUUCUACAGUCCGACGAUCAGUCUUUUUCUGGUUUUGCUCAAGUUGAAGAAUGCGUGGAGAGUCUUCUGGUGAGACAUCCUCUGUCCCGGGUCCCAUUUCCCCACCUGUAACUGAGGUUAGGAAAAGAUUGGAAUUCUCGGGUGCCAA | 0.334

Series 2 — technique: RNA Bind-n-Seq; form: RNA; medium: in vitro; tested at: 20 nM; setting: 6-mer, flanks averaged, single round; added: 150 mM KCl; reference: input library; direction: higher = stronger binding
Target: TAR DNA-binding protein 43, full length, His tag (TARDBP, Homo sapiens, UniProt Q13148, residues 1-414)
Oligonucleotide | 6-mer enrichment (R)
CAUUCG | 0.585
UAGCAC | 0.652
CUGACG | 0.858
GCGGGG | 8.28
GAGUCG | 1.36
UCCAUC | 0.561
UCUAAA | 0.592
CUAAAU | 0.615

Other studies, line by line
B1: ARF14 497-605 (Arabidopsis thaliana, UniProt Q9LQE8); chain SPTEIQSKQFSSTRTCTKVQMQGVTIGRAVDLSVLNGYDQLILELEKLFDLKGQLQARNQWEIAFTNNEEDKMLVGEDPWPEFCNMVKKIFIYSKEEVKNLKSRKSLSS
Substance | target or system | test | system | setting | scale | quantity | result
COc1cc(-c2coc3cc(O)c(OC)c(O)c3c2=O)cc(O)c1OC |  |  | mouse, microsomes or S9 | 2 µM, 0.5 h |  | remaining compound | 53.3%
B1 (ARF14 497-605) | ARF17 (Arabidopsis thaliana, UniProt Q84WU6) | two-hybrid |  | weak activation fusion | reference: out of 3 tests, higher = firmer interaction | positive tests | 0
